Measured values from different studies.
Numbered parts are unrelated; each lists some results of a single study. Substitutions count along the parent as printed.

Series 1
Target: CCNE1, cyclin fold, Cln2 fusion (human)
Method: yeast growth competition, sequencing
Medium: yeast
Setting: weak parent motif
Relative to: not given
Reading: higher = stronger binding
Starting sequence: MICAL3 docking peptide (human); LQLRRQLSFSEDS
Under “normalised enrichment score”, `D12C` is recorded as 2.72.
`R4S` — result for “normalised enrichment score”: 0.33.
`S8H`: “normalised enrichment score” 0.896.
For `S8L`, “normalised enrichment score” read 0.699.
For `E11Q`, “normalised enrichment score” read 0.942.
For `L3R`, “normalised enrichment score” read 0.256.
`E11H` — result for “normalised enrichment score”: 0.173.
`S10G`: “normalised enrichment score” 1.57.
`Q6W` — result for “normalised enrichment score”: 0.838.
For `S10C`, “normalised enrichment score” read 0.854.
For `Q2C`, “normalised enrichment score” read 1.57.
Under “normalised enrichment score”, `L7P` is recorded as -0.0636.
`Q2I`: “normalised enrichment score” 0.926.
`R5K`: “normalised enrichment score” 0.096.
For `R5D`, “normalised enrichment score” read 0.00118.

Series 2
Target: TAR DNA-binding protein 43, full length, His tag (TARDBP, Homo sapiens, UniProt Q13148, residues 1-414)
Method: RNA Bind-n-Seq
Form: RNA
Medium: in vitro
Concentration: 20 nM
Setting: 6-mer, flanks averaged, single round
Together with: 150 mM LiCl
Relative to: input library
Reading: higher = stronger binding
Under “6-mer enrichment (R)”, `UGUUUG` is recorded as 1.79.
`GGAUAU`: “6-mer enrichment (R)” 0.95.
Under “6-mer enrichment (R)”, `AUGCCC` is recorded as 1.03.
`ACGCUC`: “6-mer enrichment (R)” 0.82.
For `UACGAC`, “6-mer enrichment (R)” read 0.809.
For `GUGGAC`, “6-mer enrichment (R)” read 1.1.
For `CCCUAG`, “6-mer enrichment (R)” read 0.974.
`GCCUGU` — result for “6-mer enrichment (R)”: 0.99.
For `ACUCUA`, “6-mer enrichment (R)” read 0.852.
`GGGGUA` — result for “6-mer enrichment (R)”: 1.26.
`GUUAUU`: “6-mer enrichment (R)” 1.15.
For `CGAGUC`, “6-mer enrichment (R)” read 0.881.
`UGUGAC` — result for “6-mer enrichment (R)”: 1.06.
`AACGAA` — result for “6-mer enrichment (R)”: 0.809.
Under “6-mer enrichment (R)”, `GGCCCG` is recorded as 1.05.
`GAAAUG`: “6-mer enrichment (R)” 1.
For `GUCGGC`, “6-mer enrichment (R)” read 1.12.
Under “6-mer enrichment (R)”, `CUUUUC` is recorded as 1.08.
Under “6-mer enrichment (R)”, `UUGCCG` is recorded as 0.949.
For `CUUGCU`, “6-mer enrichment (R)” read 0.97.
Under “6-mer enrichment (R)”, `GUCAAU` is recorded as 0.926.
For `UCCCCA`, “6-mer enrichment (R)” read 1.14.
`AUGGUG` — result for “6-mer enrichment (R)”: 1.34.
Under “6-mer enrichment (R)”, `AUAAAA` is recorded as 0.945.
For `AAGUUC`, “6-mer enrichment (R)” read 0.838.

Series 3
Target: ABI1, truncated, D143A, DHFR fusion (Arabidopsis thaliana)
Method: DHFR PCA, deep sequencing
Medium: yeast
Setting: methotrexate growth selection, single substitutions
Together with: (+)-ABA 200 µM
Relative to: wild-type fitted maximum
Reading: higher = stronger binding
Starting sequence: PYL1, truncated, DHFR fusion (Arabidopsis thaliana); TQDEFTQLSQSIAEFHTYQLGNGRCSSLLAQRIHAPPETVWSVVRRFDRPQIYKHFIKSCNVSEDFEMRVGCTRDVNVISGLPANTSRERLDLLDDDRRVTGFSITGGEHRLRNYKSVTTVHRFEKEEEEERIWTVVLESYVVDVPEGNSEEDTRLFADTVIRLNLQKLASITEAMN
Under “relative binding score”, `L93Q` is recorded as 102%.
Under “relative binding score”, `V118W` is recorded as 5.36%.
`V137H` — result for “relative binding score”: -7.25%.
`V62S`: “relative binding score” 74.2%.
`D97S`: “relative binding score” 102%.
For `Q51K`, “relative binding score” read 51.8%.
Under “relative binding score”, `E151Q` is recorded as 97.4%.
For `L138G`, “relative binding score” read -10.3%.
For `M176G`, “relative binding score” read 98.9%.
`L93R` — result for “relative binding score”: 101%.

Mixed results
`PhoQ, residues 284 288 289 292 302 303 SSCLAV` has a fold induction of 15.4 (PhoP, residues 12 14 15 18 19 SFCSL (Escherichia coli, UniProt P23836); Sort-seq, refers to: YFP reporter; E. coli; PhoQ-PhoP variant library, together with: 10 µM Mg2+; relative to: high Mg2+ state, higher = stronger signaling).
